Measured values of several laboratories.
Every numbered part comes from another study and shows a few of its results, in no order. “And” joins repeats or separate records; there may be more than shown. Changes are numbered by the printed parent chain.

Study 1
Target: RING finger protein unkempt homolog, zinc fingers 1-6, GST-SBP tag (UNK, Homo sapiens, UniProt Q9C0B0, residues 30-357)
Technique: RNA Bind-n-Seq
Molecule type: RNA
Medium: in vitro
Tested at: not given
Notes: RNA with constant flanks, human and mouse sites, ends assumed
Relative to: input RNA pool
Reading: higher = stronger binding
Shared flanks, not repeated: GGGAGUUCUACAGUCCGACGAUC … CAACAGAGGAUUGAGCAUCA
Residues (chain): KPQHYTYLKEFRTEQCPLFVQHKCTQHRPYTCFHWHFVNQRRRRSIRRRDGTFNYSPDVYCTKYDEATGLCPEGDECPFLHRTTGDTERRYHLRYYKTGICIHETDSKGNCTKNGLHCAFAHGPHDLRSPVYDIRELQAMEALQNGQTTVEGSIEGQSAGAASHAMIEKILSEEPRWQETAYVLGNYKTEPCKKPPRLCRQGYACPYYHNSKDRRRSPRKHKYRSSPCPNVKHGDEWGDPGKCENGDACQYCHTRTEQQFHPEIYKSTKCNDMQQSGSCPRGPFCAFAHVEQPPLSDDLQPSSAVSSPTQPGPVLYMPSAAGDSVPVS
| Strand | bound/input enrichment [ratio] |
| --- | --- |
| UGAGUUCUAUUAUUGAUUAAAGAAGACAGAUUUACAUUCAGGAUUCUGGUGUCUGGAGGCUUAGCCUCAAAGCCAGUUUUGAUGACUUAGAAGGCAAUCUAUGUCACUGUCCCCACAAAG | 0.169 |
| GGAAAAAGUCUACAGGGUGAUCCAGCAGCAGCUCUGCUUGAGGUGUUGGAUCCUGAACAAAACCAUAACUUCACAGAUCAUUAUCUAAAUGUGGCCUUUGACCUUUCUCAAGUUCUUUUU | 0.1 |
| UGCAUUAAUCCACCCUUGUUUGAAAUCCAUCAAGUCUUGUUGAGUCCAACCCAACAUCAUGUAGCACUUAUCGGAAGUAAAGGACUUAUGGCAUUAGAAUUACCUCAGAGGUGGGGGAAG | 0.963 |
| GCAGGGCAAGAGGAUUAUGACAGAUUACGACCGCUGAGUUAUCCACAAACAGAUGUAUUUCUAGUCUGUUUUUCAGUGGUCUCUCCAUCUUCAUUUGAAAACGUGAAAGAAAAGUGGGUG | 0.518 |
| ACUUGCAUAUCUGAAGAAAUGGCAUUCCGGACAAUUUGCGUGUUGGUUGGAGUAUUUAUUUGUUCUAUCUGUGUGAAAGGAUCUUCCCAGCCCCAAGCAAGAGUUUAUUUAACAUUUGAU | 0.274 |
| GAACUAUCCGGGACCCAGAAAAGCCCAAUACUUUAGAAGAACUGGAAGUGGUCACAGAGAGUUGUGUGGAAGUUCAAGAAAUAAAUGAAGAUGACUAUUUGGUUAUUAUCAAGUUCACAC | 0.384 |
| GACGAACAAGGCGGCGGCGUGGGCACCAAGGACCACGGGGGCGGCGGCGGCGGUGGCAAAGACCAGCAGCAGCAGCAGCAGGAGGCACCUUUAGGCCCGGGUCCCAAGUUUUGCAAAGCC | 0.129 |
| AACUACGUGACGAUUAAGCUUUGCUUACUGCUACAUGGCAUGUAUUCUUUUCCGUCUUUUGUGUCUGGUUCUGUUUGCUUCCCCCUGCCGCACAGUGUCCAUCGCACGGUGUCUCUGUGA | 0.0936 |
| UGGCUUUGGAAUGUACAAACAGGAGAACUAAGGACAAAAAUGAGCCAGUCUCAUGAAGACAGUUUGACAAGUGUGGCUUGGAAUCCAGAUGGGAAGCGCUUUGUGACUGGAGGUCAGCGU | 0.272 |
| AAAUCACGAAACAAUGAAUCAGAAAAGCCCAGUUCUAAUUCAGAAGUGAGUUUACAAGUAGAUUUGAAAAGCAUUUUGGAGAAACAGUUUUCAAAAUCUUCCAGAGCUGCACACCAGGAU | 0.238 |
| UCUUCUCUUUUUGGAAUUUUAUCUCCUAGUAGUGAUCUCACACUUUCAAGUGUUCUCUGGGAUAGAGAGAGAUCAAGCUUUUAUAGCCUGACGAGUUCAAACAUCAGUAAAUGGGAAUUA | 0.634 |

Study 2
Target: Transcriptional repressor CTCF (CTCF, Homo sapiens, UniProt P49711, residues 1-727, full length assumed)
UniProt P49711, sequence (whole entry, looked up): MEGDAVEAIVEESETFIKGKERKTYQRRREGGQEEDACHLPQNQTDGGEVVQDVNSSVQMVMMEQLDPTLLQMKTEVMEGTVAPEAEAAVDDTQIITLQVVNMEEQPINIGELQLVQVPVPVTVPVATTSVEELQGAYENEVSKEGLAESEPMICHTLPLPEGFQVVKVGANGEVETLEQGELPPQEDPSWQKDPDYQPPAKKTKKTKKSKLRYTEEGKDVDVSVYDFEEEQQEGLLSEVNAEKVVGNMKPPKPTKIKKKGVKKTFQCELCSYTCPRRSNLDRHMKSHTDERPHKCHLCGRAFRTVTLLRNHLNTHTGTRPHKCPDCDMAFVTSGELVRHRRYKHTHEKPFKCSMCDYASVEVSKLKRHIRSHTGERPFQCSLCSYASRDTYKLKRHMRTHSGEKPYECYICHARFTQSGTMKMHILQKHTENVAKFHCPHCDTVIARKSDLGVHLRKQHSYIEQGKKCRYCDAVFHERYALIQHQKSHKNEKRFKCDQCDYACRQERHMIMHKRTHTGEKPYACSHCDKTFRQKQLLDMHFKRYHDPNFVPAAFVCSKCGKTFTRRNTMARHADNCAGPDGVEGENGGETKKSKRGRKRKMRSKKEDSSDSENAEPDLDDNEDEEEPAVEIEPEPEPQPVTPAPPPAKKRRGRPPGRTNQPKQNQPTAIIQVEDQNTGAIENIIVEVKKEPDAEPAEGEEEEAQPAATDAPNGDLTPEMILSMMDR
Technique: protein-binding microarray
Molecule type: double-stranded DNA, one strand shown
Medium: in vitro
Tested at: not given
Notes: k-mer, scored over probes, only values ≥0.25
Reading: higher = stronger binding
| Strand | E-score |
| --- | --- |
| AGAAGTAT | 0.251 |
| AATAACAT | 0.355 |
| AATATTAA | 0.329 |
| ATAACAAC | 0.267 |
| AGTAGAAA | 0.26 |
| CCCCTAGG | 0.293 |
| ATGAATAC | 0.285 |
| TGCGCAAA | 0.378 |
| CATCCGCA | 0.261 |
| TATGTAAA | 0.286 |
| AAAATCAT | 0.252 |
| CGTAAATC | 0.255 |
| GTAAATTA | 0.262 |
| CGCAATAG | 0.258 |
| AGTAAATA | 0.357 |
| AAAACAAG | 0.256 |
| GCAAAACA | 0.253 |
| TATGTTCA | 0.283 |
| ATGTATTG | 0.273 |
| GATAAATA | 0.272 |
| CTTTGCGC | 0.286 |

Study 3
Target: CCNB2, cyclin fold, Cln2 fusion (human)
Technique: yeast growth competition, sequencing
Medium: yeast
Notes: weak parent motif
Relative to: not given
Reading: higher = stronger binding
Parent: GMNC docking peptide (human); KNAKRNLSSEFAN; partner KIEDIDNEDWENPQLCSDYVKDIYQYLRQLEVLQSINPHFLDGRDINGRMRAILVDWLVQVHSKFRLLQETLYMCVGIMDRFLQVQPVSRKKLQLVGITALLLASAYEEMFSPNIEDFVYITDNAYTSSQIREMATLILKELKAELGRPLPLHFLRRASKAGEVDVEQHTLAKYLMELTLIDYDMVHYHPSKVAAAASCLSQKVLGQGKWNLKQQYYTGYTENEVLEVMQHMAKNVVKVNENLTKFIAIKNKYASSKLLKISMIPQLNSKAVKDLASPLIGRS
| Change | normalised enrichment score |
| --- | --- |
| N6G | 0.481 |
| A3C | 1.35 |
| K4F | 0.223 |
| N6C | 0.18 |
| S9Q | 0.076 |
| K4W | 0.356 |
| S9T | 0.814 |
| L7D | 0.334 |
| S8V | 0.546 |
| A3Q | 0.544 |
| S8E | 0.437 |
| K4C | 0.458 |
| N2T | 0.917 |
| F11H | 0.612 |
| R5L | 0.0577 |
| S8D | 0.405 |

Other studies, line by line
| Molecule | target | test | test system | conditions | how to read | quantity | result |
| --- | --- | --- | --- | --- | --- | --- | --- |
| PhoQ, residues 284 288 289 292 302 303 SIHMAM | PhoP, residues 12 14 15 18 19 LWHSL (Escherichia coli, UniProt P23836) | Sort-seq, refers to: YFP reporter | E. coli | PhoQ-PhoP variant library, together with: 10 µM Mg2+ | relative to: high Mg2+ state, higher = stronger signaling | fold induction | 5.72 and 2.18 |

A few entries again (study 1):
| Strand | bound/input enrichment [ratio] |
| --- | --- |
| ACUUGCAUAUCUGAAGAAAUGGCAUUCCGGACAAUUUGCGUGUUGGUUGGAGUAUUUAUUUGUUCUAUCUGUGUGAAAGGAUCUUCCCAGCCCCAAGCAAGAGUUUAUUUAACAUUUGAU | 0.274 |
| GAACUAUCCGGGACCCAGAAAAGCCCAAUACUUUAGAAGAACUGGAAGUGGUCACAGAGAGUUGUGUGGAAGUUCAAGAAAUAAAUGAAGAUGACUAUUUGGUUAUUAUCAAGUUCACAC | 0.384 |
| GACGAACAAGGCGGCGGCGUGGGCACCAAGGACCACGGGGGCGGCGGCGGCGGUGGCAAAGACCAGCAGCAGCAGCAGCAGGAGGCACCUUUAGGCCCGGGUCCCAAGUUUUGCAAAGCC | 0.129 |
| AACUACGUGACGAUUAAGCUUUGCUUACUGCUACAUGGCAUGUAUUCUUUUCCGUCUUUUGUGUCUGGUUCUGUUUGCUUCCCCCUGCCGCACAGUGUCCAUCGCACGGUGUCUCUGUGA | 0.0936 |
| UGGCUUUGGAAUGUACAAACAGGAGAACUAAGGACAAAAAUGAGCCAGUCUCAUGAAGACAGUUUGACAAGUGUGGCUUGGAAUCCAGAUGGGAAGCGCUUUGUGACUGGAGGUCAGCGU | 0.272 |
| AAAUCACGAAACAAUGAAUCAGAAAAGCCCAGUUCUAAUUCAGAAGUGAGUUUACAAGUAGAUUUGAAAAGCAUUUUGGAGAAACAGUUUUCAAAAUCUUCCAGAGCUGCACACCAGGAU | 0.238 |
| UCUUCUCUUUUUGGAAUUUUAUCUCCUAGUAGUGAUCUCACACUUUCAAGUGUUCUCUGGGAUAGAGAGAGAUCAAGCUUUUAUAGCCUGACGAGUUCAAACAUCAGUAAAUGGGAAUUA | 0.634 |
